Experimental data pooled from the literature.
Every numbered part comes from another study and shows a few of its results, in no order. Changes are numbered by the printed parent chain.

Series 1 — method: DHFR PCA, deep sequencing; medium: yeast; with: (+)-ABA 200 µM; baseline: wild-type fitted maximum; reading: higher = stronger binding
Target: ABI1, truncated, D143A, DHFR fusion (Arabidopsis thaliana)
Setting: methotrexate growth selection, single substitutions
Starting sequence: PYL1, truncated, DHFR fusion (Arabidopsis thaliana); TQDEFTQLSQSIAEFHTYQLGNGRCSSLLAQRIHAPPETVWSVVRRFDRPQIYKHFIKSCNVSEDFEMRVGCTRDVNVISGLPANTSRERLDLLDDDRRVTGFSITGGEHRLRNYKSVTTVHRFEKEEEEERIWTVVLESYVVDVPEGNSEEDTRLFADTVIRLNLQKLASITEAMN
Substitution	relative binding score [%]
V40T	48.8
N22I	94.4
D65I	84.6
N85C	98.7
G107H	86.2
Y53S	41.7
L8Q	92.3
A35P	-5.62
S63N	103
I133F	99.6
V78F	86.6
C25A	106
C25S	83.2
D96P	60.6
G108T	42.2
T119R	8.17
Q2M	110
P37Y	54.5
G71E	49.2
F5I	95.2

Series 2 — target: CCND3, cyclin fold, Cln2 fusion (human); method: yeast growth competition, sequencing; medium: yeast; setting: weak parent motif; baseline: not given; reading: higher = stronger binding
Starting sequence: PKMYT1 docking peptide (human); SFEPRNLLSLFED; partner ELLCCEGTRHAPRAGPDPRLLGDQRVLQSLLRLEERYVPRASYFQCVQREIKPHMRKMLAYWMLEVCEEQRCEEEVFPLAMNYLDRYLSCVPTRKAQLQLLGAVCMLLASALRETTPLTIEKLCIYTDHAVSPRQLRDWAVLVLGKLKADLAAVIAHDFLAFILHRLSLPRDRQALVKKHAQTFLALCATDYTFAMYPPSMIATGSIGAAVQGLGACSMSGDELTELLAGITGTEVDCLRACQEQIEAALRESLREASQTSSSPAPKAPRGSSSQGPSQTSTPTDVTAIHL
Substitution	normalised enrichment score
SFEPANLLSLFED [R5A]	0.105
SGEPRNLLSLFED [F2G]	0.215
SFEPINLLSLFED [R5I]	0.169
SFEPRNLLKLFED [S9K]	0.00719
SFEPRNLLSLIED [F11I]	0.114
SFEPRTLLSLFED [N6T]	0.12
SFEPRNELSLFED [L7E]	0.00756
SFEPRNLLSFFED [L10F]	0.02
SFEPRNLLSLFID [E12I]	0.426
SFEPRKLLSLFED [N6K]	0.0758
SLEPRNLLSLFED [F2L]	0.0871
SFEPRNLRSLFED [L8R]	0.0558
SFEPRNILSLFED [L7I]	0.11
SFEPRNLLSLFEN [D13N]	0.136
SFEPRNLLSLMED [F11M]	0.0683
SFEPRNLLSLRED [F11R]	0.0375
SAEPRNLLSLFED [F2A]	0.0627
SFEPRDLLSLFED [N6D]	0.0851
SFEPRNLLSLFEL [D13L]	0.102
SFEIRNLLSLFED [P4I]	-0.0308
HFEPRNLLSLFED [S1H]	-0.0318
SFEPKNLLSLFED [R5K]	-0.0688
SFYPRNLLSLFED [E3Y]	0.17
SFEPRNLLSLFWD [E12W]	0.0253
SFTPRNLLSLFED [E3T]	0.0361

Series 3 — target: ATF2, bZIP domain (human); method: DHFR protein complementation; medium: yeast; baseline: wild-type JUN-FOS pair; reading: higher = stronger binding
Setting: single substitutions, most at no-binding floor
Starting sequence: JUN, bZIP domain (human); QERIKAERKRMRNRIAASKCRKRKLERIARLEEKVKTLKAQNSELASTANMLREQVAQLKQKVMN; partner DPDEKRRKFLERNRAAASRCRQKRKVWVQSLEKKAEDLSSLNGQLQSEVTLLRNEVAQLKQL
Substitution	binding fitness
S47Q	-1.33 natural log
E44A	-1.43 natural log
A57V	-1.5 natural log
A40L	-1.4 natural log
Q41N	-1.46 natural log
Q41F	-1.59 natural log
T37M	-0.994 natural log
E54M	-1.52 natural log
A40E	-1.37 natural log
E54T	-1.32 natural log
Q41A	-1.4 natural log
N42Y	-1.49 natural log
V35W	-1.53 natural log
L45C	-1.39 natural log
Q55C	-1.37 natural log
A49W	-1.38 natural log
M51N	-1.45 natural log
A46H	-1.27 natural log
L52H	-1.5 natural log
E44M	-1.38 natural log
L31F	-1.51 natural log
E33N	-1.47 natural log

Series 4 — method: RNAcompete; form: RNA; medium: in vitro; concentration: 20 nM; setting: 7-mer, probes averaged, single round; baseline: mean of 7-mers; reading: higher = stronger binding
Target: PABPC1L2, full length, GST fusion (mouse, UniProt A0ABA7IW68)
Construct (chain): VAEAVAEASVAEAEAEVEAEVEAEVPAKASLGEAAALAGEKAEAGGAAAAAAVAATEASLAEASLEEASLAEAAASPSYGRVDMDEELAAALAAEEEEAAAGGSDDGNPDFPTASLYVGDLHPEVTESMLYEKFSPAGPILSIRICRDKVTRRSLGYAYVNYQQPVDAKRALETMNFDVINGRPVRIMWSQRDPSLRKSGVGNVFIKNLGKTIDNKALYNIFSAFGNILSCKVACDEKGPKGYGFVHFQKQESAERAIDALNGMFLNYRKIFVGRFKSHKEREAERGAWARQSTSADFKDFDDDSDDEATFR
Strand	7-mer Z-score
CCGCGAG	-0.371
ACAUCCU	-0.188
UGUGGUC	-0.222
GGAGCGU	0.00617
ACUGCGC	-0.224
UGACACU	-0.151
GGCUACC	-0.0428
CAGACGU	-0.0826
GAGUAUC	-0.211
CACCUCC	-0.354
UCAAUCA	-0.186
CAACCAC	-0.184
GAAUGCG	-0.0772
GUUGCUU	-0.26
AUCAGCU	-0.171
UGGUAUA	-0.0989
GGACCUA	-0.0591
UCCUUAA	-0.219
CACUACU	-0.248
GAAGAAC	0.269
UUAAUCU	-0.17
UAGAGAG	-0.119
GAUUAUC	-0.2
ACGCCCC	-0.262

Series 5 — method: protein-binding microarray; form: double-stranded DNA, one strand shown; medium: in vitro; concentration: 250 nM; setting: 60-bp whole probe; with: salmon DNA 0.4 mg/ml; baseline: random background probes; reading: higher = stronger binding; shared flanks, not repeated: GCCTAGCAC … GTCTTGATTCGCTTGACGCTGCTG
Target: Interferon regulatory factor 7, full length, phosphomimetic (IRF7, Homo sapiens, UniProt Q92985, residues 1-503, S101K/S471D/S472D/S475D/S476D/S477D/S483D/S484D/S487D)
UniProt Q92985, sequence (whole entry, unmodified, looked up): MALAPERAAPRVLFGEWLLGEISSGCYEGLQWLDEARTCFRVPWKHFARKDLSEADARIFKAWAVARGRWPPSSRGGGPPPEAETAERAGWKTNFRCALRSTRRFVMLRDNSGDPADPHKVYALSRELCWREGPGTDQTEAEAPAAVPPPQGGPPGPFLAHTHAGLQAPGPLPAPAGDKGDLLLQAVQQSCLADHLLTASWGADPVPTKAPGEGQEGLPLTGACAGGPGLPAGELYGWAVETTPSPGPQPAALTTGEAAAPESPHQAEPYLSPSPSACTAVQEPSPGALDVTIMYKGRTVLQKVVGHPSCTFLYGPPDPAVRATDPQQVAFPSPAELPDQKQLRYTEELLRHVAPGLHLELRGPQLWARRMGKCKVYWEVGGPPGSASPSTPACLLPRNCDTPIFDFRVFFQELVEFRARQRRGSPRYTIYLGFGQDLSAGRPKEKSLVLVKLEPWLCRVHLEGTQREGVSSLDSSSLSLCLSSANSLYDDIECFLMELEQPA
Strand	log fluorescence [z-score]
TTAGGTTTCGACTATCGGCTAGTGCTA	5.09
GACGGACTGGGGTTTCTGGACGTGCTA	-0.809
TTAGATTTCAGCATCGATTAGTGCTAG	0.465
TATAGTTATTTTTATTAAAAGTGCTAG	0.45
TTAGATTTCGGGACAGGATTAGTGCTA	0.409
TTAGATATTGGGTATCGATTAGTGCTA	0.458
TCAAGTTTACCCATCTCCAGGTGCTAG	0.435
GACGCTATCGGTCTCGGGACGTGCTAG	0.261
GACGGACTGGGTTTCGGTACGTGCTAG	3.14
TCATGTTTCTCAACCATACTGTGCTAG	1.25
GACAGTTTCGACTATCGGGACGTGCTA	5.13
TCATTTTTAGCTTGCAAACTGTGCTAG	0.317
ACTCTTCTTTTTTTTCTTTAGTGCTAG	1.38
TCCTCTCTCTTTCCACTTGTGTGCTAG	1.1
TTAGGACTGCACTATCGGTTAGTGCTA	-0.52
TCATGTCCCCCTTTTATACTGTGCTAG	0.955
GCAGGGCTCTCTTCTGCTTCCGTGCTA	-0.752

Some of these lines once more (series 4):
Strand	7-mer Z-score
GAAUGCG	-0.0772
CACUACU	-0.248
CAACCAC	-0.184
UGGUAUA	-0.0989
UUAAUCU	-0.17
AUCAGCU	-0.171
CACCUCC	-0.354
GGCUACC	-0.0428
CCGCGAG	-0.371
ACUGCGC	-0.224
GAUUAUC	-0.2
UCAAUCA	-0.186
UGUGGUC	-0.222
